{"data": "Assay results gathered from unrelated publications", "GFP/gp17 fusion": "GFP/gp17 fusion (bacteriophage T4)", "B1": "CEP192 456-541 (Homo sapiens, UniProt Q8TEP8); chain ESIEKNKDKTDLPQSVVYQNEEGRWVTDLAYYTSFNSKQNLNVSLSDEMNEDFRSGSEAFDLIAQDEEEFNKEHQFIQEENIDAHN", "B2": "SHE2 C14S/C68S/C106S/C180S (Saccharomyces cerevisiae, UniProt P36068); sequence looked up; chain MSKDKDIKVTPGTSELVEQILALLSRYLSSYIHVLNKFISHLRRVATLRFERTTLIKFVKKLRFYNDSVLSYNASEFINEGKNELDPEADSFDKVILPIASMFVKSVETFDLLNYYLTQSLQKEILSKTLNEDLTLTAESILAIDDTYNHFVKFSQWMIESLRIGSNLLDLEVVQFAIKSADEDGTNIGETDNIFLQEILPVNSEEEFQTLSAAWHSILDGKLSALDEEFDVVATKWHDKFGKLKN", "B3": "FUS 141-214 (Homo sapiens, UniProt P35637); sequence looked up; chain QSYGQQQSYNPPQGYGQQNQYNSSSGGGGGGGGGGNYGQDQSSMSSGGGSGGGYGNQDQSGGGGSGGYGQQDRG", "B4": "gp20 R338A/R339A (bacteriophage T4, UniProt P13334); sequence looked up; chain MKFNVLSLFAPWAKMDERNFKDQEKEDLVSITAPKLDDGAREFEVSSNEAASPYNAAFQTIFGSYEPGMKTTRELIDTYRNLMNNYEVDNAVSEIVSDAIVYEDDTEVVALNLDKSKFSPKIKNMMLDEFSDVLNHLSFQRKGSDHFRRWYVDSRIFFHKIIDPKRPKEGIKELRRLDPRQVQYVREIITETEAGTKIVKGYKEYFIYDTAHESYACDGRMYEAGTKIKIPKAAVVYAHSGLVDCCGKNIIGYLHRAVKPANQLKLLEDAVVIYRITRAPDRRVWYVDTGNMPARKAAEHMQHVMNTMKNRVVYDASTGKIKNQQHNMSMTEDYWLQAADGKAVTEVDTLPGADNTGNMEDIRWFRQALYMALRVPLSRIPQDQQGGVMFDSGTSITRDELTFAKFIRELQHKFEEVFLDPLKTNLLLKGIITEDEWNDEINNIKIEFHRDSYFAELKEAEILERRINMLTMAEPFIGKYISHRTAMKDILQMTDEEIEQEAKQIEEESKEARFQDPDQEQEDF", "B5": "MYL2 (Homo sapiens, UniProt P10916); sequence looked up; chain MAPKKAKKRAGGANSNVFSMFEQTQIQEFKEAFTIMDQNRDGFIDKNDLRDTFAALGRVNVKNEEIDEMIKEAPGPINFTVFLTMFGEKLKGADPEETILNAFKVFDPEGKGVLKADYVREMLTTQAERFSKEEVDQMFAAFPPDVTGNLDYKNLVHIITHGEEKD", "B6": "S100A12 (Homo sapiens, UniProt P80511); sequence looked up; chain MTKLEEHLEGIVNIFHQYSVRKGHFDTLSKGELKQLLTKELANTIKNIKDKAVIDEIFQGLDANQDEQVDFQEFISLVAIALKAAHYHTHKE", "B7": "CCS1 1-74 C17S/C20S (Saccharomyces cerevisiae, UniProt P40202); sequence looked up; chain MTTNDTYEATYAIPMHSENSVNDIKACLKNVPGINSLNFDIEQQIMSVESSVAPSTIINTLRNCGKDAIIRGAG", "B8": "LAT 48-233 (Homo sapiens, UniProt O43561-2); pY132/pY171/pY191/pY226, Alexa Fluor 488; sequence looked up; chain GIQFKRPHTVAPWPPAYPPVTSYPPLSQPDLLPIPRSPQPLGGSHRTPSSRRDSDGANSVASYENEEPACEDADEDEDDYHNPGYLVVLPDSTPATSTAAPSAPALSTPGIRDSAFSMESIDDYVNVPESGESAEASLDGSREYVNVSQELHPGAAKTEPAALSSQEAEEVEEEGAPDYENLQELN", "B9": "SNX3 (Saccharomyces cerevisiae, UniProt Q08826); chain MPREFKSFGSTEKSLLSKGHGEPSYSEIYAEPENFLEIEVHNPKTHIPNGMDSKGMFTDYEIICRTNLPSFHKRVSKVRRRYSDFEFFRKCLIKEISMLNHPKVMVPHLPGKILLSNRFSNEVIEERRQGLNTWMQSVAGHPLLQSGSKVLVRFIEAEKFVG", "B10": "SLD5/PSF1/PSF2/PSF3 (Saccharomyces cerevisiae); chain 1 MDINIDDILAELDKETTAVDSTKITQGSSSTTHRDANTIVGSSLDLNDKTQIYVSPQQDFSDLMKSWKNERCSPELLPYPHQLMKRLLNRISMQSQLIENISMGFLDMQNASNANPPMPNESKLPLLCMETELERLKFVIRSYIRCRLSKIDKFSLYLRQLNEDENSLISLTDLLSKDEIKYHDTHSLIWLKLVNDSILKYMPEELQAINDTEGSVNMIDEPDWNKFVFIHVNGPPDGKWNEDPLLQENEFGKPCYTVTIPDLKEEVELTIGSIYVMRYEVIRDLLRDDKVALI; chain 2 MYGDLGNKLVLEAKRTKQLYARSNQDVNLPMYHEDIIRNILKEVSNLRKNTEYLKEQQQLGMLDDKVAKCQYFVTLLCMERNKRCLLAYQRLRTDILDSMAWNNNGLDLMSSITFSQQDTNNLSHQEQEYLKEYCDLITDLKSGDLVDIDLSGSLVPPSDVFIDVRVLKDAGEIQTEYGVFNLIKDSQFFVRQSDVERLIQQGYLQKI; chain 3 MSLPAHLQQTFSPEEIQFIVENEPIKIFPRITTRQKIRGDDRGTGNHTRWQLITTDDKALNNMVAMRSTEVVLWIALLLKQQSKCSIVAPQWLTTKELDRKIQYEKTHPDRFSELPWNWLVLARILFNKAKDDFHDPIHELRGKIQDLREIRQIKVLKGLKYLNESHLQLDNLSLLEINELRPFITEIMDKLREIHTASLTAGTENDEEEFNI; chain 4 MGYYDIDDVLADGTEFPCKFQYDIPGLGYLENNPGRPITKNTKLSLPLWLARILAIVGGDEALVDEEPVPFVELLPPDMFSTKVMNAIKTDPVALDLHSINSHFFSLAIKWIMLFSEKELANVVSELLLQRAQELNHHASSLSIDLNADSTGKNSANTNIATSTFLLKLEEMEKEIYKKSHESYKDTKRWMFKK", "B11": "gp20 D340A/K342A (bacteriophage T4, UniProt P13334); sequence looked up; chain MKFNVLSLFAPWAKMDERNFKDQEKEDLVSITAPKLDDGAREFEVSSNEAASPYNAAFQTIFGSYEPGMKTTRELIDTYRNLMNNYEVDNAVSEIVSDAIVYEDDTEVVALNLDKSKFSPKIKNMMLDEFSDVLNHLSFQRKGSDHFRRWYVDSRIFFHKIIDPKRPKEGIKELRRLDPRQVQYVREIITETEAGTKIVKGYKEYFIYDTAHESYACDGRMYEAGTKIKIPKAAVVYAHSGLVDCCGKNIIGYLHRAVKPANQLKLLEDAVVIYRITRAPDRRVWYVDTGNMPARKAAEHMQHVMNTMKNRVVYDASTGKIKNQQHNMSMTEDYWLQRRAGAAVTEVDTLPGADNTGNMEDIRWFRQALYMALRVPLSRIPQDQQGGVMFDSGTSITRDELTFAKFIRELQHKFEEVFLDPLKTNLLLKGIITEDEWNDEINNIKIEFHRDSYFAELKEAEILERRINMLTMAEPFIGKYISHRTAMKDILQMTDEEIEQEAKQIEEESKEARFQDPDQEQEDF", "B12": "apcC (Synechocystis sp. PCC 6803, UniProt Q01950); sequence looked up; chain MRMFRITACVPSQTRIRTQRELQNTYFTKLVPYDNSFREQQRIMKMGGKIVKVELATGRPGTNAGLA", "B13": "VPS5/VPS17 SNX-BAR complex (Saccharomyces cerevisiae); chain 1 MDYEDNLEAPVWDELNHEGDKTQSLVSNSIESIGQISTNEERKDNELLETTASFADKIDLDSAPEWKDPGLSVAGNPQLEEHDNSKADDLINSLAPEQDPIADLKNSTTQFIATRESGGALFTGNANSPLVFDDTIYDANTSPNTSKSISGRRSGKPRILFDSARAQRNSKRNHSLKAKRTTASDDTIKTPFTDPLKKAEKENEFVEEPLDDRNERRENNEGKFTASVEKNILEQVDRPLYNLPQTGANISSPAEVEENSEKFGKTKIGSKVPPTEKAVAFKVEVKDPVKVGELTSIHVEYTVISESSLLELKYAQVSRRYRDFRWLYRQLQNNHWGKVIPPPPEKQSVGSFKENFIENRRFQMESMLKKICQDPVLQKDKDFLLFLTSDDFSSESKKRAFLTGSGAINDSNDLSEVRISEIQLLGAEDAAEVLKNGGIDAESHKGFMSISFSSLPKYNEADEFFIEKKQKIDELEDNLKKLSKSLEMVDTSRNTLAASTEEFSSMVETLASLNVSEPNSELLNNFADVHKSIKSSLERSSLQETLTMGVMLDDYIRSLASVKAIFNQRSKLGYFLVVIENDMNKKHSQLGKLGQNIHSEKFREMRKEFQTLERRYNLTKKQWQAVGDKIKDEFQGFSTDKIREFRNGMEISLEAAIESQKECIELWETFYQTNL; chain 2 MTSAVPYDPYDDLDNNPFAEPQEEDSEPAATTTDGSSSMSEERVGTEQTAASVQDNGTANNIQNGLGEEGNATRSKTSNEHNENQQPSQPSERVILPERSDEKKKYTLLAKVTGLERFGSATGKKENPTIIFDCSTNLPTFRKQQYKNVKKSYEEFHQLFKYLNVAIQESFVPTLPSAYTTFGINSEEDRMKVTRNFQLWFNRLSQDPLIIRNEEVAFFIESDFNTYTPINKSKSLASGLKRKTLKQLAPPYDEITELAEFRPLVKSIYVVSQSLQEKLLRVSRNRKMMVQEENAFGQDFVNLDEHNKLYRRYGKILTAVGDIDSIIATMDMATLYDGLEWIVRDAYAVKEALTNRHFIMRNLVQAQQNSKAKQEQARRFRSRRDINPMKIDEALRQLKAAAKNEQVLTLKLQRITSNMIIERKQWISWYEEWIRSSIKEFTLRKIEYERKKLTLLERVRSDIRKADENGGLSRLGRHAVSNNNSDTSQTLKGDSWTGESNRKSQIPINKIAHTEFDDELFTEDDGYNSQDSDTTSLNARHAASLLGMSTK", "note": "Each line is one published result; not all experiments were run side by side.", "chain of UniProt P12883 (whole entry, looked up)": "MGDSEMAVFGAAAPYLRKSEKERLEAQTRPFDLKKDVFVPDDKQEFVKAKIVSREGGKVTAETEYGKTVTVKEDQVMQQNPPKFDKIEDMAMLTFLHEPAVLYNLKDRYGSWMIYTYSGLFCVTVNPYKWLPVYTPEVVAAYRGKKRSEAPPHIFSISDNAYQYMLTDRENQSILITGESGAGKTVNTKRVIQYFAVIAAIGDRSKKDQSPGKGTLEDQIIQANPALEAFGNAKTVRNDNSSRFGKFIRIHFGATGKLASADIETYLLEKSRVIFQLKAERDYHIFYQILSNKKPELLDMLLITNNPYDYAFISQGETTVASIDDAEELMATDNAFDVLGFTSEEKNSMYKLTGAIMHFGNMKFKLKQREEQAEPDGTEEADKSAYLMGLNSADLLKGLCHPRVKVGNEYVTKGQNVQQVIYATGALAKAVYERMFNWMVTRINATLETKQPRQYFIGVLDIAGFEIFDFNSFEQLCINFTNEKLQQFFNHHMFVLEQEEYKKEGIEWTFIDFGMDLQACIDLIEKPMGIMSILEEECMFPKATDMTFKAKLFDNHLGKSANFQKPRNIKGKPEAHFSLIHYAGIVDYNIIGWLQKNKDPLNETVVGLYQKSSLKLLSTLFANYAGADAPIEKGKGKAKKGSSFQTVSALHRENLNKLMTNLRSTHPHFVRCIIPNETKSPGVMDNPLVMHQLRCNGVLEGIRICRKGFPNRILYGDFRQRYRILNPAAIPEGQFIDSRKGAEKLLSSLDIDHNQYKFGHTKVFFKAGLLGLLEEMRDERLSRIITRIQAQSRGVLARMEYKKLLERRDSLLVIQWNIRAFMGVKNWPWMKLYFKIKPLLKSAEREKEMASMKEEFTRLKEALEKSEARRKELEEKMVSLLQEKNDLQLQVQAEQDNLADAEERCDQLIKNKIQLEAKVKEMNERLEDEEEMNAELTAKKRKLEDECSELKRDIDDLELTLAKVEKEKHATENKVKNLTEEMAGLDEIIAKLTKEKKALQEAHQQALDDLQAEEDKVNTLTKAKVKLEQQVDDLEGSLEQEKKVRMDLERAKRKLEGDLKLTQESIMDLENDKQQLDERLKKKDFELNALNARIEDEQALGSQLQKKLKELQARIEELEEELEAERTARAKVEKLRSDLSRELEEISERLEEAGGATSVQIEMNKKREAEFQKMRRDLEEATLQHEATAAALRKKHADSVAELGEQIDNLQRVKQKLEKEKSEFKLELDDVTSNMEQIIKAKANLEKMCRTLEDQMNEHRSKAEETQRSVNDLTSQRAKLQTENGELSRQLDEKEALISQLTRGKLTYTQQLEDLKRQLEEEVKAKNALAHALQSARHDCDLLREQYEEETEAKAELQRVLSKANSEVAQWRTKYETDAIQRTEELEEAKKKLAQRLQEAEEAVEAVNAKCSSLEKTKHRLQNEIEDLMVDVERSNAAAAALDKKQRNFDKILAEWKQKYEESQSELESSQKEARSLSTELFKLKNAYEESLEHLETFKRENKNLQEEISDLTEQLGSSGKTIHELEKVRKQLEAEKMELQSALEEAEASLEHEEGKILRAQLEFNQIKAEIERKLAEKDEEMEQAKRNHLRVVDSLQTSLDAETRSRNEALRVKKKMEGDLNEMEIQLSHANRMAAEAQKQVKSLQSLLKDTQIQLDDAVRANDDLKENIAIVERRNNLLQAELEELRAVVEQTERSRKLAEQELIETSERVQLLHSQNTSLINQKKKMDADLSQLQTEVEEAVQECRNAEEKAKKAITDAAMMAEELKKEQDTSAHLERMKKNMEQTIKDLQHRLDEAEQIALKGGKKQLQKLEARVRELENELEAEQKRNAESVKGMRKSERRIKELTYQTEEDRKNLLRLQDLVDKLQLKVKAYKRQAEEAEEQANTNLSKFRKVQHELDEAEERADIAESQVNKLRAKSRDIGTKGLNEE", "chain of UniProt P09119 (whole entry, looked up)": "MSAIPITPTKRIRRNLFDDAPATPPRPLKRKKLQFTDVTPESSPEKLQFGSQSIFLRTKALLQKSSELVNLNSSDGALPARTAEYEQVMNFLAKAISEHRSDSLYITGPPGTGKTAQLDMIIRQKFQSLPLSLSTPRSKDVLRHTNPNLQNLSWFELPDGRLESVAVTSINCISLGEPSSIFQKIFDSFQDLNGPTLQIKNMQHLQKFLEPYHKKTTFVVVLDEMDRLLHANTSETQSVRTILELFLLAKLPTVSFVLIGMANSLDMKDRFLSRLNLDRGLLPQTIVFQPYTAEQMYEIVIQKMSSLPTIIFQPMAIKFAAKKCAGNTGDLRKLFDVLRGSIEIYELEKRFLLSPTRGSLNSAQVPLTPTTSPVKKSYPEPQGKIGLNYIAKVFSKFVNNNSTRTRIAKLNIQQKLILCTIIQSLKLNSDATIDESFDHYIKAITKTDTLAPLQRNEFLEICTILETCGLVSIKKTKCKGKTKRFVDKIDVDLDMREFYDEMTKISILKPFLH", "chain of UniProt Q01952 (whole entry, looked up)": "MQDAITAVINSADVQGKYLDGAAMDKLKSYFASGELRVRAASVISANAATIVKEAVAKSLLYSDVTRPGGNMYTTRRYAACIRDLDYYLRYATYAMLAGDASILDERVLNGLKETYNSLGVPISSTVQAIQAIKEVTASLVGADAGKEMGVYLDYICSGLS", "chain of UniProt P32854 (whole entry, looked up)": "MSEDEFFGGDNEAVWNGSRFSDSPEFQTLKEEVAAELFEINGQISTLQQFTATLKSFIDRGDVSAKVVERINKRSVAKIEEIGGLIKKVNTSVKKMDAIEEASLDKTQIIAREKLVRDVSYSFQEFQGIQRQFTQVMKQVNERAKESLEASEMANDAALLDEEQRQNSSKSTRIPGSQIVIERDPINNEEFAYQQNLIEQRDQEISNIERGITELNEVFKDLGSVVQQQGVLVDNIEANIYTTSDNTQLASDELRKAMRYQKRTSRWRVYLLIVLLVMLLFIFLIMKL", "chain of UniProt P36046 (whole entry, looked up)": "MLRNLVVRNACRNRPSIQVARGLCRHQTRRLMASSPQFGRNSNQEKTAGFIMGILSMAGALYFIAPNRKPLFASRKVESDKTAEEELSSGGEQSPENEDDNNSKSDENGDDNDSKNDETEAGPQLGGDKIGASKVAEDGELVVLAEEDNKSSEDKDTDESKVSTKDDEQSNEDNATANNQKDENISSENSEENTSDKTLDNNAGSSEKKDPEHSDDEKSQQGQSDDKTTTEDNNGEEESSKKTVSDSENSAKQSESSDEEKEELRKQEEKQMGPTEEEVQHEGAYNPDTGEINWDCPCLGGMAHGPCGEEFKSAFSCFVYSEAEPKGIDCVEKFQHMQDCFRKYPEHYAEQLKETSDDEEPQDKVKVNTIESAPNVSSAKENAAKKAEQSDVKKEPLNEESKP", "chain of UniProt O14965 (whole entry, looked up)": "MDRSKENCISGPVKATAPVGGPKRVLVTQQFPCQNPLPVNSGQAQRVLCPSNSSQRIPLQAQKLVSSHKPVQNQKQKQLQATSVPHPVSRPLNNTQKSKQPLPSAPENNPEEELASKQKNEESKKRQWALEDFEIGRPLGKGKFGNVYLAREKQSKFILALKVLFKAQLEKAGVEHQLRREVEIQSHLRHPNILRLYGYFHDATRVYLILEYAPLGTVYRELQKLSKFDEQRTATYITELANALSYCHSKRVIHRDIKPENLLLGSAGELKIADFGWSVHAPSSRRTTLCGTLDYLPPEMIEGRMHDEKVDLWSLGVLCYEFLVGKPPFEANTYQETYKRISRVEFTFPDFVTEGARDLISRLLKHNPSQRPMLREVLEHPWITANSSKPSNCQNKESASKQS"}
{"Substance": "HYPK fragment (Homo sapiens) (sequence not shown)", "partner": "NAA15/NAA10 NAA10 1-160 (Homo sapiens)", "test": "crystal structure", "binding": "binds"}
{"Substance": "B1 (CEP192 456-541)", "partner": "AURKA kinase domain 123-403, phosphorylated (Homo sapiens, UniProt O14965)", "test": "ITC", "binding": "binds"}
{"Substance": "B2 (SHE2 C14S/C68S/C106S/C180S)", "partner": "MYO4/SHE3/CMD1/MLC1 full length motor (Saccharomyces cerevisiae)", "test": "electron microscopy", "binding": "binds"}
{"Substance": "BACH1 BTB domain C55A, S-nitrosylation treated (Homo sapiens) (sequence not shown)", "partner": "FBXL17/SKP1 FBXL17 310-701 (Homo sapiens)", "test": "BLI", "setting": "apparent", "binding": "binds"}
{"Substance": "CDC6 (Saccharomyces cerevisiae, UniProt P09119)", "partner": "MCM2/MCM3/MCM4/MCM5/MCM6/MCM7 hexamer (Saccharomyces cerevisiae)", "test": "cross-linking", "binding": "binds"}
{"Substance": "B3 (FUS 141-214)", "partner": "FUS 111-214 (Homo sapiens, UniProt P35637)", "test": "hydrogel binding assay", "binding": "binds"}
{"Substance": "B4 (gp20 R338A/R339A)", "partner": "GFP/gp17 fusion", "test": "co-sedimentation", "setting": "30 min, NaCl 100 mM, bound relative to gp23", "binding": "binds"}
{"Substance": "B5 (MYL2)", "partner": "MYH7 1-834 (Homo sapiens, UniProt P12883)", "test": "cross-linking", "setting": "4 µM, 20 min, pH 7.3, 25 °C, KCl 50 mM, with: ATP", "binding": "binds"}
{"Substance": "B6 (S100A12)", "partner": "AGER extracellular domain 23-342 N81Q (Homo sapiens, UniProt Q15109)", "test": "ELISA", "setting": "with: CaCl2 1 mM", "binding": "binds"}
{"Substance": "B7 (CCS1 1-74 C17S/C20S)", "partner": "MIA40 284-403, oxidized (UniProt P36046)", "test": "pull-down", "setting": "10 min, pH 7.0, 25 °C, NaCl 200 mM, nonreducing", "binding": "binds"}
{"Substance": "B8 (LAT 48-233)", "partner": "GRB2 fragment, Alexa Fluor 568 label (Homo sapiens)", "test": "TIRF microscopy", "setting": "supported lipid bilayers", "binding": "binds"}
{"Substance": "GGDSSESSSEDESEDGDENEEDDEDEDDDEDDDEDEDNESE (UBTF 706-746 (Homo sapiens, UniProt P17480); sequence looked up)", "partner": "TBP/TAF1A/TAF1B/TAF1C (Homo sapiens)", "test": "pull-down", "system": "not purified SL1", "setting": "with or without phosphatase", "binding": "binds"}
{"Substance": "B9 (SNX3)", "partner": "PEP12 cytosolic domain 1-266 (Saccharomyces cerevisiae, UniProt P32854)", "test": "GUV recruitment, fluorescence microscopy", "setting": "with: PI-3-P", "binding": "binds"}
{"Substance": "B10 (SLD5/PSF1/PSF2/PSF3)", "partner": "MCM2/MCM3/MCM4/MCM5/MCM6/MCM7 loaded double hexamer, DDK phosphorylated (Saccharomyces cerevisiae)", "test": "pull-down", "binding": "binds"}
{"Substance": "B11 (gp20 D340A/K342A)", "partner": "GFP/gp17 fusion", "test": "co-sedimentation", "setting": "30 min, NaCl 100 mM, bound relative to gp23", "binding": "binds"}
{"Substance": "B12 (apcC)", "partner": "apcB, bilin at Cys81 (Synechocystis sp. PCC 6803, UniProt Q01952)", "test": "cross-linking", "binding": "binds"}
{"Substance": "BRD1 fragment E41A/E43A/E45A (Homo sapiens) (sequence not shown)", "partner": "histone H4 (Bos taurus, UniProt P62803)", "test": "pull-down", "binding": "binds"}
{"Substance": "B13 (VPS5/VPS17 SNX-BAR complex)", "partner": "VPS26/VPS29/VPS35 (Saccharomyces cerevisiae)", "test": "fluorescence microscopy", "system": "supported membrane tubes", "setting": "25-50 nM, 25 °C", "binding": "binds"}
{"note": "A few entries again:"}
{"Substance": "GGDSSESSSEDESEDGDENEEDDEDEDDDEDDDEDEDNESE (UBTF 706-746 (Homo sapiens, UniProt P17480); sequence looked up)", "partner": "TBP/TAF1A/TAF1B/TAF1C (Homo sapiens)", "test": "pull-down", "system": "not purified SL1", "setting": "with or without phosphatase", "binding": "binds"}
{"Substance": "BACH1 BTB domain C55A, S-nitrosylation treated (Homo sapiens) (sequence not shown)", "partner": "FBXL17/SKP1 FBXL17 310-701 (Homo sapiens)", "test": "BLI", "setting": "apparent", "binding": "binds"}
